Measurements of several laboratories.
A part holds a random share of what one study measured. Positions count from the first letter of the parent shown.

Sample 1 — technique: RNA Bind-n-Seq; form: RNA; medium: in vitro; concentration: 100 nM; baseline: input RNA pool; reading: higher = stronger binding
Target: RING finger protein unkempt homolog, zinc fingers 1-6, SBP tag (UNK, Homo sapiens, UniProt Q9C0B0, residues 30-357)
UniProt Q9C0B0, sequence (30-357, looked up): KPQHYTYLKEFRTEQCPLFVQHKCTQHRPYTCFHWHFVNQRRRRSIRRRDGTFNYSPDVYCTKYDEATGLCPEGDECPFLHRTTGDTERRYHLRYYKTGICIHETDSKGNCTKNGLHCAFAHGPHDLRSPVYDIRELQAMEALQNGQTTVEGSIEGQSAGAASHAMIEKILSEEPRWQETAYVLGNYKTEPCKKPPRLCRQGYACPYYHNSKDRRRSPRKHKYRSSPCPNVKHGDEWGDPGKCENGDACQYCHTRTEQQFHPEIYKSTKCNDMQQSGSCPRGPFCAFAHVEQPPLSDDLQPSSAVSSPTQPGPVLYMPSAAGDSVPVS
Notes: RNA with constant flanks, vertebrate orthologous sites, ends assumed
All sequences stand within: GGGAGUUCUACAGUCCGACGAUC … CAACAGAGGAUUGAGCAUCA
Sequence | bound/input enrichment
CUCUCUUAGCGAUAGUAUUCCAUCUGUAGCAGAUUCGCACUCGAGUCAUUUUUCUGAGUUUAGUUGCUCCGAUAUGGAAAGUAUGAAAACUUCCUGUAGCCAUGGUUCCAGUGACUAUCA | 0.62 ratio
CUCUUUUCCAGGUUGGAUGUACUGGAAAAGUCAUAGGAAUUGAUCACAUUAAAGAGCUAGUAGAUGACUCAAUAAAUAAUGUCAGGAAGGACGAUCCAACACUUCUGUCUUCAGGGAGAG | 0.786 ratio
GGGACGCUUUGACAUAAAGCUCACCGUGUCGUGACCUGAGCUACAGGGAGCACUCAAUUUGAAAACGAAUACAACUUAGAGAAAACAGUUCAGAUAAAAACCACCACUAGUCUUUGAACA | 0.321 ratio
CCCCAGCACGCUCGUAAAAAGUGUGGACUGGCUGCUUGUUUUUUCCUUAUUCUUUUUAGUUAGUUUUAUUAUGUAUGCUGCCAUUCGAACUGAGAGUAUUCGGUGGCUGAUUCCAGGACA | 4.28 ratio
GCAUGCACAUGCCACUGUCACCAAGAGCGAGCCACCACUUCUCAGAUUUCCGAGCUGUUGUAGUGUUCCCUGUUCCCUACCCUUCCCCCGACUGUGAGAGAUGAGCUGUCCUAAGUUGUU | 0.785 ratio
UUUUAAAGUCAUUUUUCACAUUUCCUGUAAAUAGUGGAUAAUCAUUUUUAUUUUAUUUUUAAGUGCUGUUUUAACAUGUGGAUAGAUCAUAAAUGUACUUGCUGAAUUCAUUCUUUUUUU | 0.579 ratio
UUUAUAAAAUUUGGACCUUGGAGUGGAACCAGGAGCCAGCAAAACAAACUUGUAAAAUUAUAGUAAUAGGCAGGCACAACAGUACUACCACUAGCAGCUGUUAAUUUAUAAAGAGAAAUU | 1.63 ratio
GGGACGCUUUGAUGUAAAAAUUGAAGUUAAGAGCUGAUCACAAGCACAAAUCUUUCCCACUAGCCAUUUAAUAAGUUAAAGAAAAAGAUACACAAACCUACUAGUCUUGAACAAACUGUC | 2.27 ratio

Sample 2 — technique: RNA Bind-n-Seq; form: RNA; medium: in vitro; concentration: 365 nM; baseline: no-protein control; reading: higher = stronger binding
Target: RNA binding protein fox-1 homolog 2, RRM domain, GST-SBP tag (RBFOX2, Homo sapiens, UniProt O43251-10, residues 100-194)
Notes: natural RNA segment, single round, ends assumed
All sequences stand within: GGGAGUUCUACAGUCCGACGAUC … UGGAAUUCUCGGGUGCCAA
Sequence | RBNS enrichment (R)
CCACUGCAUUCUUUGGCUAAGGCCUGAAUGCUUGCUCAUCUGUAAGAUCUAUACUCGAGGUUUUGUUUUCCUUUUAAAAUUCUUUAGGGAGAGAGGGAUGGUUUCUGAGG | 0.494
UCUAGUGUUCCGUCUUGUUUUGUGUUAAUUACAGCAUUGUGCUAAUGUAAAGACUCUGCCUUUGCGAAGCCAGCUGCAGUGCUGUAGGCCCCCAAGUUCCCUAGCAAGCU | 0.417
GCUGUCUUUGUUAGAUACUGCUGAGUGAAAGGUGGACCGAGAAGGCUCUUGUGAAGCUCCAGGUAGACGGGAAUGUUCCUCGGUUCAGGUGAGAGCCAGAUCUAGAGAGU | 0.42
GACUCCCUUACACAGUAUUGAUCUUCUGACUGUGGAAACAACCUUCCUCUCACUUUCACACCUUUAAUUUAAAUCUAUUUAAGAGAACCAUGGUUCUGAUUGUUGUGUAU | 0.533
GACAGUCGUUUCUUUUCCAGCCUCCUGGCCUUCGGACUCUGAAUCUGGGCAGGAAGAGUCCUCAGUCCCAAGACCAGGAGGGGGCAAUGGGCCCAGCCUUUCUGUGGUAU | 0.599
AAGAAGCUUCAAGAAAGCACUGGGUUGUAGGUGUUAAAAUAUCCUCUAGUGAUGUUCACCACUUUUAUUUAUUCCUACCUAUUUAUUUAUUUCAUAGCACCAGUAUUCAG | 0.963
AAAAAUUGCUGAAUAUAAAAUCUUUGAAAAUUUUCUUUAUGUGUGAAGACACAAAGUAUGGGGGAAGACAGCAAUCAAAACUAACUUUUUGUAGAUAGCCAUUUCAUUUC | 1.39
GGGGGCAUAAACUUUAUUCCACUGGAGAAGCCCUGGGGGUGGCUGGAGCCAGCCUGCUGAGAAGCGUGGUGCAGCUGGGUCUGGGACUUCACUAGAGCUUACUCUGGAGC | 0.565

Sample 3 — technique: protein binding microarray; form: double-stranded DNA, one strand shown; medium: in vitro; concentration: not given; baseline: not given; reading: higher = stronger binding
Target: Histone acetyltransferase KAT6A, winged helix 2, GST fusion (KAT6A, Homo sapiens, UniProt Q92794, residues 85-181)
Notes: 8-mer, flanks averaged, mean of 2 arrays, mostly near background
Target sequence (chain): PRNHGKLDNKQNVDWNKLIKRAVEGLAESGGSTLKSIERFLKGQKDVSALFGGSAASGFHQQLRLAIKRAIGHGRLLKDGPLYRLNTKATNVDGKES
Sequence | E-score
CAGTCAGC | -0.0464
CACGTATC | -0.247
CCCACGCG | -0.014
CCGTACGG | -0.0891
GGGAAAGA | 0.109
GATGGCAA | 0.00447
CCACCGGG | 0.0519
CAAGTGAA | 0.0131
CGTTATAG | -0.14
CGGGGAGC | 0.064
CTACGATC | -0.0417
TTAACTAA | -0.0102
GCACGTCA | -0.179
GCAATTCA | 0.0555
CATAACGG | -0.0914
GTCTACAA | -0.146
AGCAACTA | 0.214
ATAGCAAG | 0.0245
TAAGATTA | 0.0247
CCCGACGG | 0.127
CGGCCGCA | 0.238

Sample 4 — technique: protein-binding microarray; form: double-stranded DNA, one strand shown; medium: in vitro; concentration: not given; reading: higher = stronger binding
Target: Protein C-ets-1 (ETS1, Homo sapiens, UniProt P14921, residues 1-441, Y397A, full length assumed)
Notes: k-mer, scored over probes, only values ≥0.25
Residues (chain): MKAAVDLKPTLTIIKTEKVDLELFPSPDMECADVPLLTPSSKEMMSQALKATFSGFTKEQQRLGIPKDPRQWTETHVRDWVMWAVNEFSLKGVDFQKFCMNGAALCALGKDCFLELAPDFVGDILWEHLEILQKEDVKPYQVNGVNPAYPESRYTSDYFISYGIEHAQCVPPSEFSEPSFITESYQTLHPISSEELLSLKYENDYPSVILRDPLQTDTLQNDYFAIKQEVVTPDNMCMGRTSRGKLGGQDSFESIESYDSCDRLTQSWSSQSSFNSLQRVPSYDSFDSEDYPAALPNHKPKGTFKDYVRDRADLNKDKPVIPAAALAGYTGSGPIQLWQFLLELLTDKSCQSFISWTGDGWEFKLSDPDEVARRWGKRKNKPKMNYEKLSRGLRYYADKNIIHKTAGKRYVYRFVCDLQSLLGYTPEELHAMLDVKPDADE
Sequence | E-score
ACGGAAGC | 0.265
AATGTGAC | 0.253
TGCCGGCA | 0.342
GTTGTATA | 0.281
CCTGACAA | 0.363
GCCGCGGC | 0.333
ATTTGCGG | 0.255
GTCAACAA | 0.291
CCGGATGC | 0.412
ACATCCGG | 0.481
CATTTGGC | 0.253
GCCAAACA | 0.31
GGCAAACA | 0.303
AAAGGCAA | 0.264
CTTCCGTC | 0.277
ATTGCAAT | 0.333
GTCACTCA | 0.276
CTTTTGCC | 0.32
ATATGGCA | 0.33
ATTGCCAA | 0.311
GTTTACGA | 0.258
TATGGCAA | 0.26

Sample 5 — technique: DHFR PCA, dose-response; medium: yeast; notes: Hill fit, mean, not affinity; added: (+)-ABA, dose series; reading: lower = more sensitive
Target: ABI1, truncated, D143A, DHFR fusion (Arabidopsis thaliana, UniProt P49597)
Starting sequence: PYL1, truncated, DHFR fusion (Arabidopsis thaliana, UniProt Q8VZS8); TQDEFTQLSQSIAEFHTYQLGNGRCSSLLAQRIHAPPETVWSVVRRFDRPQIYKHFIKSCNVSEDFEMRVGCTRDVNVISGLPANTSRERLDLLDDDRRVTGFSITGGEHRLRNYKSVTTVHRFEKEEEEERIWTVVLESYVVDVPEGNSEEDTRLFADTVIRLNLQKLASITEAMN
Substitution | ABA EC50 [µM]
E4V | 1.16
R98V | 23.5
R111Q | 41
N77I | 3.71
N177C | 0.791
Q31H | 7.52
R69E | 2.29
P36Y | 19.6
F15E | 91.6
R123F | 22.9
G23Y | 18
G107W | 273
D159M | 595
V62Y | 31.8
D144G | 145
R45V | 333
E147H | 2.8
A170M | 10.4
A158S | 15.4
